Published values pooled from the literature.
Lines come from different studies, so protocols differ. Numbers after ± are the reported error.
Cell line: KB

SMILES | observed | method | time | setting | reference | measurement | result
Cc1cccc2c1NC(=O)C21C2=C(COC2=O)NC2=C1C(=O)c1ccccc1C2=O (stereo not shown) | cell growth or viability | MTT | 72 h |  |  | IC50 | 10 µM
C=C(C)[C@@H]1CC[C@]2(COC(=O)CCC(=O)O)CC[C@]3(C)[C@H](CC[C@@H]4[C@@]5(C)CC[C@H](OC(=O)CCC(=O)O)C(C)(C)[C@@H]5CC[C@]43C)[C@@H]12 | cell growth or viability | SRB | 72 h |  |  | IC50 | 7.17 mg/L
C/C(=C\c1ccco1)[N+](=O)[O-] |  |  |  | mean of three Leishmania species | KB CC50 over Leishmania IC50 | selectivity index | 11.7
N#Cc1c(-c2ccco2)[n+]([O-])c2ccccc2[n+]1[O-] | cell growth or viability | resazurin | 72 h |  |  | IC50 | 6.52 µM
C=CC(=C)CC[C@]1(C)[C@H](C)CC[C@@]23C(=C[C@H](OC(=O)C(C)C)C[C@@H]12)[C@@H](OC(C)=O)O[C@H]3OC(C)=O | cell growth or viability | SRB |  |  |  | IC50 | 25.1 µM
CN(C)CC(=O)Nc1cccc(Nc2ncc(F)c(Nc3ccc(F)cc3)n2)c1 | cell growth |  | 72 h |  |  | GI50 | 1.26 ± 0.05 µM
N#Cc1c(-c2ccco2)[n+]([O-])c2ccc(F)cc2[n+]1[O-] | cell growth or viability | resazurin | 72 h |  |  | IC50 | 5.59 µM
C=CC(=C)CC[C@]1(C)[C@H](C)C[C@H](O)[C@@]23C(=C[C@H](OC(=O)C(C)C)C[C@@H]12)[C@@H](OC(C)=O)O[C@H]3OC(C)=O | cell growth or viability | SRB |  |  |  | IC50 | 0.56 µM
O=[N+]([O-])/C=C/c1ccco1 |  |  |  | mean of three Leishmania species | KB CC50 over Leishmania IC50 | selectivity index | 4
CCCCCCCCCCCCCCCCC1CC(=O)NCCCN(C)CCCCN(C)CCCN1C (stereo not shown) | cell growth or viability | neutral red | 48 h |  |  | IC50 | 1.9 mg/L

A few entries again:
SMILES | observed | method | time | setting | reference | measurement | result
N#Cc1c(-c2ccco2)[n+]([O-])c2ccccc2[n+]1[O-] | cell growth or viability | resazurin | 72 h |  |  | IC50 | 6.52 µM
